Results collected from several papers.
Every numbered part comes from another study and shows a few of its results, in no order. Changes are numbered by the printed parent chain.

Block 1 — target: CCNF, cyclin fold, Cln2 fusion (human); method: yeast growth competition, sequencing; sample: yeast; notes: strong parent motif; relative to: not given; reading: higher = stronger binding; quantity: normalised enrichment score
Starting sequence: CDC25A docking peptide (human); PPHRRRLLFACSP; partner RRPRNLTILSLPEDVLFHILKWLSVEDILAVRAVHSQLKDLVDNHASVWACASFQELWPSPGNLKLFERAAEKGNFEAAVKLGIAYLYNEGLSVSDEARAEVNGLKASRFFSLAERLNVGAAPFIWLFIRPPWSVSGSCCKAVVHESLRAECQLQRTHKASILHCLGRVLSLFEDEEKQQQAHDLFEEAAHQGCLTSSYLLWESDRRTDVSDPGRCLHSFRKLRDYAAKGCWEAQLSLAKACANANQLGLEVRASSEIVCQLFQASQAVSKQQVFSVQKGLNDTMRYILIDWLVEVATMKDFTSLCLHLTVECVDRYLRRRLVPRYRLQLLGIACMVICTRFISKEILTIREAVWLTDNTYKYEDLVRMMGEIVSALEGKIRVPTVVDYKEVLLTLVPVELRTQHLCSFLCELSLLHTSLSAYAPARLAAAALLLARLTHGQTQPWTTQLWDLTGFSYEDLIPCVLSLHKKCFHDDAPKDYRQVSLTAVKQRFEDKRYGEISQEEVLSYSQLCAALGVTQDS
R5C: 1.37
P13A: 7.95
R6G: 1
P2Q: 6.98
R5W: 2.66
L8V: 7.79
L8K: 6.57
L7P: 0.788
R6T: 3.29
R6E: 3.74
R6D: 0.799
C11D: 7.92
F9L: 3.8
A10L: 7.73
R5F: 2.46
P2A: 6.84
H3I: 8.48
R6Y: 1.78
R5L: 2.48
P1S: 6.96
S12H: 7.38
A10R: 6.74

Block 2 — method: aptamer microarray, sandwich; molecule type: DNA with 2'F-ANA; sample: in vitro; tested at: 200 nM; with: Cy3 exosite-II aptamer, 400 nM; reading: higher = stronger binding; quantity: mean fluorescence intensity; oligonucleotide: GGTTGGTGTGGTTGG
Target: Prothrombin, mature alpha-thrombin (F2, Homo sapiens, UniProt P00734)
Notes: whole 15-mer aptamer, many near background
2'F-ANA at 3 6 7 8 9 10 12 14 15: 403 a.u.
2'F-ANA at 5 7 9 10 11 14 15: 75.8 a.u.
2'F-ANA at 2 3 4 7 9 11 14: 274 a.u.
2'F-ANA at 1 2 3 6 8 9 11 12 13 14: 75.5 a.u.
2'F-ANA at 1 4 5 7 8 10 14 15: 47.8 a.u.
2'F-ANA at 1 9 11 13: 143 a.u.
2'F-ANA at 1 2 3 5 6 7 8 12 14: 47.5 a.u.
2'F-ANA at 2 5 6 9 10 13: 47.5 a.u.
2'F-ANA at 2 3 4 6 7 9 12 13 14 15: 217 a.u.
2'F-ANA at 1 2 6 9 10 11 13 15: 65 a.u.
2'F-ANA at 2 6 7 9 10 11 12 15: 113 a.u.
2'F-ANA at 2 3 5 8 10 12 13: 56.9 a.u.
2'F-ANA at 6 7 8 10 13 14 15: 119 a.u.
2'F-ANA at 1 4 5 6 7 8 9 10 11 12 13: 48.8 a.u.
2'F-ANA at 3 4 5 8 10 12 14 15: 67.6 a.u.
2'F-ANA at 1 5 6 8 12 14 15: 148 a.u.
2'F-ANA at 4 9 12 14: 116 a.u.

Block 3 — method: RNA Bind-n-Seq; molecule type: RNA; sample: in vitro; tested at: 365 nM; relative to: no-protein control; reading: higher = stronger binding; quantity: RBNS enrichment (R)
Target: RNA binding protein fox-1 homolog 2, RRM domain, GST-SBP tag (RBFOX2, Homo sapiens, UniProt O43251-10, residues 100-194)
Notes: natural RNA segment, single round, ends assumed
Constant ends, left off below: GGGAGUUCUACAGUCCGACGAUC … UGGAAUUCUCGGGUGCCAA
Construct (chain): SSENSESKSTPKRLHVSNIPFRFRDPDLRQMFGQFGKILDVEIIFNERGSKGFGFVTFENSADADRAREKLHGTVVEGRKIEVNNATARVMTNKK
CUUGUUGCCUGAGAAGAAACCUUGGGGUGCCAGGGUGGGGGCAGAAGCAUGGGCUGGGUUCCGGUUCAUCCUCCUCCACCCUGCCGUGUGUGUGGGCACAAGAGGACAUC: 1.3
CAUGUUGUUUCCAUAACUACUUUGAUAUUUUAACUCAGGUACUCCAGUCUUCACCCCAACCUCAGCUGAUUGUAGUACACCUGCUAGCUCUGUUGCCCCCUCAAAACUGC: 0.377
UUACUGUCUCUUCUGGUUAUAAAGCAGACAUGUGGCCAUCUUUUCCGCAGGGUUAGAGUGGGCUCCUUUCUUUUUGGAAUCCUUUUCUUCUCCUUUGGUAGCAGCUCCCU: 0.308
AAUAUGCUUCCAACCCAAAGGCCUUUCAUCUCAGUAUCUGUCAAACUUGAAUAACGUCUUCUCUUUACUAUUACACACGAGGCAGCCUAUUAACCUGUGUCUUAGAAUUG: 0.377
CUUAUUGAUGAAAGAAACCGUCUUUGCGUUACACCCGAGUCUGCCUCUCGGAGCAGGGAGCUCACCUUCCGCGACGUGUUCUGAGGGUCUGCAUCUUAGGGGGGAGGGCU: 0.573
UUAUAGUUGCCUUUCUAACUACUUAGCACAGUUUGAGAAUACGUUAAUUGCUAUUUACUAUUUAAAAAGUUUUACUGAAAUCAGUCCAUAACAUUAAGAUGAGCCCUAAU: 0.403
CUUGGGUUUUUGUACGAAGCUAUUUAAUGAGCCUGUGUCUUGGGGACUCAGCAGGCUGGAGCUUGGGGCCUGGUGGACCAUCACCUGGUGUCUGUAGGUGGACCCGGUCU: 0.83
GAGUGCUUUCUGUUUUUGUCAGAAAUGACCUUUCCUAUUAGAAAAUGCCCUGUCUGCUUGUCACCCUCUGAAUCUUCUUGAGCUACAGGUAGUGUUUUCAGUACCAUCAU: 0.268
GCAAGGAUUCAGCACCAGUUAUGUUUGAAUGAACCCUCCUUUUCUCUGAGAUUCUGGUCCCUGGAAAUCCCUUUCUGCUAGUGGUGAGCAUGUAAGUGUUAAGUUUUUAA: 5.47
GAUUAGAAGCUAGUAUCACCCAUUGGGAUUGGCAAUGCCUUCAAAGGCUCCUAGUCAAAUGAUCCAAACCUUUAACAUCGUUUCUGAUGGUACCCAAGUUCACAUUUUAU: 0.295
GUCAGUGGAGGGAAGCAGAGCUUUGAGUGACACACGAGUGUUGGGGUUUCCUGCUGCCUGCCCUGGCCCGUGAGAGACGCACGCAACAAACGGAAGAAUUAGAGACGUCC: 2.65
AGCCCAGCAGUAGUUGGAGAGGCAGGCAGAGGGCAGUGGUUCUCCCAAAUAGGAGACCUGGGGCCUGGCCAGGCCAGGGUUUGGGCCUAAUGGCUUUGACUAAAUUACCC: 0.316

Block 4 — method: protein binding microarray; molecule type: double-stranded DNA, one strand shown; sample: in vitro; tested at: not given; relative to: not given; reading: higher = stronger binding; quantity: E-score
Target: Histone acetyltransferase KAT6A, winged helix 2, GST fusion (KAT6A, Homo sapiens, UniProt Q92794, residues 85-181)
Notes: 8-mer, flanks averaged, mean of 2 arrays, mostly near background
Residues (chain): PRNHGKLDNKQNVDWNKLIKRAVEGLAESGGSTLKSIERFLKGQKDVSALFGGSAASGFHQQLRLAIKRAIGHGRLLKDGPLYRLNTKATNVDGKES
CGCCCGGA: 0.143
CCGGCTTC: 0.255
CTATAAAG: -0.194
ACTCTGAT: -0.0242
CACATCCC: -0.171
GCGGTACA: 0.11
GCATGTTA: -0.00922
GAAAACTA: -0.0425
CAGGTATA: -0.101
AGTCATTC: -0.137
GACACTGC: 0.126
AATTCCCT: -0.0861
GATGGCGC: -0.0423
AACAATCT: 0.0458
ACGTTTGA: -0.207
AGCATGTC: -0.0305
GGCCGGTA: 0.168
AGCCCGTG: 0.091
CGTAAACG: -0.086
CGCCAGCG: 0.177
GGATATGA: 0.00348
GTTCATCA: 0.0183
TCACCTGA: -0.0826
AGAGATAG: 0.0822
ACTTGTCC: -0.132

Block 5 — target: JDP2, bZIP domain (human); method: DHFR protein complementation; sample: yeast; relative to: wild-type JUN-FOS pair; reading: higher = stronger binding; quantity: binding fitness
Notes: single substitutions, most at no-binding floor
Starting sequence: JUN, bZIP domain (human); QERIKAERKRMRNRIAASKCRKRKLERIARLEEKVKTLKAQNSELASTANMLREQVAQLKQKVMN; partner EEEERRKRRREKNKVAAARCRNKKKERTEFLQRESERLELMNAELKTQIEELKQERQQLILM
A49G: 0.0988 natural log
S43H: 0.293 natural log
L45R: -0.0977 natural log
A46Q: 0.228 natural log
L38G: 0.0742 natural log
L38C: -0.0189 natural log
T48W: 0.154 natural log
M51G: 0.287 natural log
V35I: 0.213 natural log
A49D: -0.0218 natural log
A40G: 0.272 natural log
S47K: 0.307 natural log
N42A: 0.208 natural log
M51A: 0.37 natural log
S43I: 0.258 natural log
M51W: 0.218 natural log
S47D: 0.331 natural log

Block 6 — method: universal PBM; molecule type: double-stranded DNA, one strand shown; sample: in vitro; tested at: not given; reading: higher = stronger binding; quantity: E-score
Target: Sal-like protein 4, full length isoform B (SALL4, Homo sapiens, UniProt Q9UJQ4-2, residues 1-616)
Notes: 8-mer, flanks averaged, mean of replicates
Target sequence (chain): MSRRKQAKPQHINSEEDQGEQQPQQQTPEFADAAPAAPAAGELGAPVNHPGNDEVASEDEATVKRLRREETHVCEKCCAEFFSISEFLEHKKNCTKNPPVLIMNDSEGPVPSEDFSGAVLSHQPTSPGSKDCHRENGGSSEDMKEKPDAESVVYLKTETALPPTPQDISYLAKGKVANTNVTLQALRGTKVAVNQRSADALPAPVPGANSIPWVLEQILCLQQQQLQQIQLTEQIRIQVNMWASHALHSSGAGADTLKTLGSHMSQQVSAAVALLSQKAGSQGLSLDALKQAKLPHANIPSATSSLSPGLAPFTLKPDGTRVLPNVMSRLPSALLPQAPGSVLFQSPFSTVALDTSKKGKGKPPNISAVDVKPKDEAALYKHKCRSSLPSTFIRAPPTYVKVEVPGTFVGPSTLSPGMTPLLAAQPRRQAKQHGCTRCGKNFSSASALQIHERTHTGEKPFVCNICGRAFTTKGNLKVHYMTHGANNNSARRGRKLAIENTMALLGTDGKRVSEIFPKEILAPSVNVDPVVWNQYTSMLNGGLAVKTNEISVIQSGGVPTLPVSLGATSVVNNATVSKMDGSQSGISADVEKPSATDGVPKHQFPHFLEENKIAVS
AACTTCAA: 0.135
GAGTGCAC: -0.158
ACTATCGC: 0.0588
AAGCGCTC: -0.172
AATATGTC: 0.334
GTGATGGA: -0.0692
ACTCAGTC: -0.194
ACGCCACG: -0.23
AATGAAGT: 0.229
GGCTTAGA: -0.112
GAGCCGCA: -0.262
AATGATCT: 0.207
TACGCACA: 0.0319
CAGTTCCA: -0.0371
CCGGAAGC: -0.358
AGTTCTCC: -0.214
GCTGAAAA: -0.00417
GACAGGCA: -0.13
ATATTGTC: 0.328
ACGCCACT: -0.187
AGTTAATG: 0.326
GCCTGGGA: -0.326
CAATCTTA: 0.214
ACGATAAT: 0.364

A few entries again (block 6):
TACGCACA: 0.0319
ACTCAGTC: -0.194
GTGATGGA: -0.0692
AACTTCAA: 0.135
AATGAAGT: 0.229
GAGCCGCA: -0.262
GACAGGCA: -0.13
AGTTAATG: 0.326
AAGCGCTC: -0.172
GCTGAAAA: -0.00417
GGCTTAGA: -0.112
ATATTGTC: 0.328
AATATGTC: 0.334
CAGTTCCA: -0.0371
GAGTGCAC: -0.158
ACGATAAT: 0.364
ACTATCGC: 0.0588
CCGGAAGC: -0.358
